Measured values collected from several papers.
Compare with care: the assays were run in different laboratories. ± gives the spread as reported.

SMILES	assay	test system	conditions	how to read	measurement	value
CCCC[C@H](NC(=O)CCCCCCCNC(=O)c1ccc(NN)nc1)C(=O)N[C@H]1CC(=O)NCCCC[C@@H](C(N)=O)NC(=O)[C@H](Cc2c[nH]c3ccccc23)NC(=O)[C@H](CCCNC(=N)N)NC(=O)[C@@H](Cc2ccccc2)NC(=O)[C@H](Cc2c[nH]cn2)NC1=O [technetium-99m labelled]		C57 mouse, B16/F1 melanoma, tumor	intravenous, 2 h		uptake	22.3 ± 1.72 %ID/g
N=C(N)NCCC[C@@H]1NC(=O)[C@H](CCCCNC(=O)CCOCCOCCOCCOCCNC(=O)CC[C@H](NC(=O)CCOCCOCCOCCOCCNC(=O)CC[C@H](NC(=O)CN2CCN(CC(=O)O)CCN(CC(=O)O)CCN(CC(=O)O)CC2)C(=O)NCCOCCOCCOCCOCCC(=O)N[C@@H](CCC(=O)NCCOCCOCCOCCOCCC(=O)NCCCC[C@@H]2NC(=O)[C@@H](Cc3ccccc3)NC(=O)[C@H](CC(=O)O)NC(=O)CNC(=O)[C@H](CCCNC(=N)N)NC2=O)C(=O)NCCOCCOCCOCCOCCC(=O)NCCCC[C@@H]2NC(=O)[C@@H](Cc3ccccc3)NC(=O)[C@H](CC(=O)O)NC(=O)CNC(=O)[C@H](CCCNC(=N)N)NC2=O)C(=O)NCCOCCOCCOCCOCCC(=O)NCCCC[C@@H]2NC(=O)[C@@H](Cc3ccccc3)NC(=O)[C@H](CC(=O)O)NC(=O)CNC(=O)[C@H](CCCNC(=N)N)NC2=O)NC(=O)[C@@H](Cc2ccccc2)NC(=O)[C@H](CC(=O)O)NC(=O)CNC1=O [indium-111 labelled]		athymic nude mice, female, U-87 MG glioma xenograft, tumour and blood	intravenous, 72 h	relative to: tumour over blood	tumour to tissue ratio	52.9 ± 4.95
Cc1ncsc1-c1ccc(CNC(=O)[C@@H]2C[C@@H](OC(=O)OCCSSCCn3cc(CCCC(=O)N[C@@H](Cc4ccc(O)cc4)C(=O)N[C@@H](CCCNC(=N)N)C(=O)N[C@@H](CCCNC(=N)N)C(=O)N[C@@H](CCCNC(=N)N)C(=O)N[C@@H](CCCNC(=N)N)C(=O)N[C@@H](CCCNC(=N)N)C(=O)N[C@@H](CCCNC(=N)N)C(=O)N[C@@H](CCCNC(=N)N)C(=O)N[C@@H](CCCNC(=N)N)C(=O)N[C@@H](CCCNC(=N)N)C(N)=O)nn3)CN2C(=O)[C@@H](NC(=O)COCCOCCOCCNC(=O)C[C@@H]2N=C(c3ccc(Cl)cc3)c3c(sc(C)c3C)-n3c(C)nnc32)C(C)(C)C)cc1	UHPLC	PBS	100 nM, 0.5 h, 37 °C, added: 5 mM glutathione	relative to: total peak area	remaining intact compound	0%
CCCC[C@@H](NC(=O)[C@H](Cc1c[nH]c2ccccc12)NC(=O)[C@@H](N)CSC1CC(=O)N(CC2CCC(C(=O)N[C@H]3C[C@H](O[C@H]4C[C@](O)(C(=O)CO)Cc5c(O)c6c(c(O)c54)C(=O)c4c(OC)cccc4C6=O)O[C@@H](C)[C@H]3O)CC2)C1=O)C(=O)N[C@@H](CCC(=O)O)C(=O)N[C@@H](C)C(=O)N[C@@H](C)C(=O)N[C@@H](Cc1ccc(O)cc1)C(=O)N[C@@H](CCC(N)=O)C(=O)N[C@H](CCCNC(=N)N)C(=O)N[C@@H](Cc1ccccc1)C(=O)N[C@@H](CC(C)C)C(N)=O (stereo partly drawn)		DMEM/F12 with HEPES	100 µM, 37 °C		half-life	~48 h
CCCC[C@H](NC(=O)CNC(=O)[C@H](CO)NC(=O)CNC(=O)c1ccc(NN)nc1)C(=O)N[C@H]1CC(=O)NCCCC[C@@H](C(N)=O)NC(=O)[C@H](Cc2c[nH]c3ccccc23)NC(=O)[C@H](CCCNC(=N)N)NC(=O)[C@@H](Cc2ccccc2)NC(=O)[C@H](Cc2c[nH]cn2)NC1=O [technetium-99m labelled]		C57 mouse, B16/F1 melanoma, tumor	intravenous, 2 h		uptake	7.41 ± 4.26 %ID/g
CSCC[C@H](NC(=O)[C@H](CC(C)C)NC(=O)[C@H](Cc1c[nH]cn1)NC(=O)CNC(=O)[C@@H](NC(=O)[C@H](C)NC(=O)[C@H](Cc1c[nH]c2ccccc12)NC(=O)[C@H](CCC(N)=O)NC(=O)CCCCCNC(=O)CN1CCN(CC(=O)O)CCN(CC(=O)O)CC1)C(C)C)C(N)=O [gallium-68 labelled]	radio-HPLC	fetal bovine serum	0 min, 37 °C		intact parent compound	> 95%
CC(C)C[C@@H]1NC(=O)[C@H](C(C)C)NC(=O)[C@H](CO)NC(=O)CNC(=O)CNC(=O)[C@H](CCCNC(=N)N)NC(=O)[C@@H]2CCCN2C(=O)[C@@H](NC(=O)CC[C@H](NC(=O)c2ccc(N(C)Cc3cnc4nc(N)nc(N)c4n3)cc2)C(=O)O)C(C)(C)SSC[C@@H](C(=O)O)NC(=O)CNC(=O)[C@H]([C@@H](C)O)NC(=O)[C@H](C(C)C)NC1=O		phosphate buffer	100 µM, pH 7.0, 70 °C		half-life	578 h
N=C(N)NCCC[C@@H]1NC(=O)[C@H](CCCCNC(=O)CCOCCOCCOCCOCCNC(=O)CN2CCN(CC(=O)O)CCN(CC(=O)O)CCN(CC(=O)O)CC2)NC(=O)[C@@H](Cc2ccccc2)NC(=O)[C@H](CC(=O)O)NC(=O)CNC1=O [indium-111 labelled]		athymic nude mice, female, U-87 MG glioma xenograft, tumour and muscle	intravenous, 0.5 h	relative to: tumour over muscle	tumour to tissue ratio	3.46 ± 1.23
N=C(N)NCCC[C@@H]1NC(=O)[C@H](CCCCNC(=O)CNC(=O)CNC(=O)CNC(=O)CC[C@H](NC(=O)c2ccc(NN=Cc3ccccc3S(=O)(=O)O)nc2)C(=O)NCC(=O)NCC(=O)NCC(=O)NCCCC[C@@H]2NC(=O)[C@@H](Cc3ccccc3)NC(=O)[C@H](CC(=O)O)NC(=O)CNC(=O)[C@H](CCCNC(=N)N)NC2=O)NC(=O)[C@@H](Cc2ccccc2)NC(=O)[C@H](CC(=O)O)NC(=O)CNC1=O [technetium-99m labelled]	shake-flask	n-octanol/phosphate buffer	pH 7.4		log P	-4.3 ± 0.03
N=C(N)NCCC[C@@H]1NC(=O)[C@H](CCCCNC(=O)CC[C@H](NC(=O)CCOCCOCCOCCOCCNC(=O)CN2CCN(CC(=O)O)CCN(CC(=O)O)CCN(CC(=O)O)CC2)C(=O)NCCCC[C@@H]2NC(=O)[C@@H](Cc3ccccc3)NC(=O)[C@H](CC(=O)O)NC(=O)CNC(=O)[C@H](CCCNC(=N)N)NC2=O)NC(=O)[C@@H](Cc2ccccc2)NC(=O)[C@H](CC(=O)O)NC(=O)CNC1=O [indium-111 labelled]		female athymic nude mice, muscle	intravenous, 3 µCi, 0.5 h, U-87 MG glioma xenograft		tissue uptake	1.17 ± 0.26 %ID/g
CCCC[C@H](NC(=O)CNC(=O)CNC(=O)c1ccc(NN)nc1)C(=O)N[C@H]1CC(=O)NCCCC[C@@H](C(N)=O)NC(=O)[C@H](Cc2c[nH]c3ccccc23)NC(=O)[C@H](CCCNC(=N)N)NC(=O)[C@@H](Cc2ccccc2)NC(=O)[C@H](Cc2c[nH]cn2)NC1=O [technetium-99m labelled]		C57 mouse, B16/F1 melanoma-bearing	intravenous, 24 h	relative to: tumour over lung	tissue uptake ratio	50.4
C[C@@H](O)[C@H](NC(=O)[C@@H]1CSSC[C@H](NC(=O)[C@@H](Cc2ccccc2)NC(=O)CN2CCCN3CCN(CCCN(CP(=O)(O)O)CC3)CC2)C(=O)N[C@@H](Cc2ccc(O)cc2)C(=O)N[C@H](Cc2c[nH]c3ccccc23)C(=O)N[C@@H](CCCCN)C(=O)N[C@@H]([C@@H](C)O)C(=O)N1)C(=O)O [copper-64 labelled]		male Lewis rat, AR-42J tumour-bearing	dose not given, 1 to 24 h	relative to: 1 h activity	activity cleared from pancreas	79%
CSCC[C@H](NC(=O)[C@H](CC(C)C)NC(=O)[C@H](Cc1c[nH]cn1)NC(=O)CNC(=O)[C@@H](NC(=O)[C@H](C)NC(=O)[C@H](Cc1c[nH]c2ccccc12)NC(=O)[C@H](CCC(N)=O)NC(=O)CCCCCNC(=O)CNC(=O)CNC(=O)CNC(=O)CSC(C)=O)C(C)C)C(N)=O [technetium-99m labelled]		Swiss mouse, kidney	intravenous, 18.5 MBq, 240 min		tissue uptake	0.29 ± 0.03 %ID/g
N=C(N)NCCC[C@@H]1NC(=O)[C@H](CCCCNC(=O)CNC(=O)CNC(=O)CNC(=O)CC[C@H](NC(=O)CCOCCOCCOCCOCCNC(=O)CC[C@H](NC(=O)CN2CCN(CC(=O)O)CCN(CC(=O)O)CCN(CC(=O)O)CC2)C(=O)NCCOCCOCCOCCOCCC(=O)N[C@@H](CCC(=O)NCC(=O)NCC(=O)NCC(=O)NCCCC[C@@H]2NC(=O)[C@@H](Cc3ccccc3)NC(=O)[C@H](CC(=O)O)NC(=O)CNC(=O)[C@H](CCCNC(=N)N)NC2=O)C(=O)NCC(=O)NCC(=O)NCC(=O)NCCCC[C@@H]2NC(=O)[C@@H](Cc3ccccc3)NC(=O)[C@H](CC(=O)O)NC(=O)CNC(=O)[C@H](CCCNC(=N)N)NC2=O)C(=O)NCC(=O)NCC(=O)NCC(=O)NCCCC[C@@H]2NC(=O)[C@@H](Cc3ccccc3)NC(=O)[C@H](CC(=O)O)NC(=O)CNC(=O)[C@H](CCCNC(=N)N)NC2=O)NC(=O)[C@@H](Cc2ccccc2)NC(=O)[C@H](CC(=O)O)NC(=O)CNC1=O [indium-111 labelled]		octanol/water			log P	-3.93 ± 0.09
N=C(N)NCCC[C@H](NC(=O)[C@H](CCCCN)NC(=O)[C@H](CCC(N)=O)NC(=O)CCOCCOCCOCCNC(=O)CN1CCN(CC(=O)O)CCN(CC(=O)O)CCN(CC(=O)O)CC1)C(=O)N[C@@H](CCCCN)C(=O)N[C@@H](CCCNC(=N)N)C(=O)N[C@@H](CCCCN)C(=O)N[C@@H](CCCCN)C(=O)N[C@@H](CO)C(=O)N[C@@H](CCCNC(=N)N)C(=O)N[C@@H](Cc1ccc(O)cc1)C(=O)N[C@@H](CCCCN)C(=O)N[C@@H](CO)C(=O)O [copper-64 labelled]		mice, B16-F10 melanoma	intravenous		blood half-life	~0.367 h

Some of these lines once more:
SMILES	assay	test system	conditions	how to read	measurement	value
CCCC[C@H](NC(=O)CNC(=O)CNC(=O)c1ccc(NN)nc1)C(=O)N[C@H]1CC(=O)NCCCC[C@@H](C(N)=O)NC(=O)[C@H](Cc2c[nH]c3ccccc23)NC(=O)[C@H](CCCNC(=N)N)NC(=O)[C@@H](Cc2ccccc2)NC(=O)[C@H](Cc2c[nH]cn2)NC1=O [technetium-99m labelled]		C57 mouse, B16/F1 melanoma-bearing	intravenous, 24 h	relative to: tumour over lung	tissue uptake ratio	50.4
